Values quoted from earlier work, collected from citations in different studies.
Lines come from different studies, so protocols differ. ± gives the spread as reported.

| Structure (SMILES) | target or system | test | system | conditions | how to read | endpoint | result |
| --- | --- | --- | --- | --- | --- | --- | --- |
| O=C(C=C(O)C(F)(F)C(F)(F)F)c1ccsc1 | Plasmodium falciparum formate-nitrite transporter | L-lactate transport, inhibitor, radiolabelled uptake | yeast |  |  | IC50 | 150 ± 10 nM |
| COc1cccc(-c2cc(F)ccc2[C@H]2Cc3nc(N)nc(C)c3C(=O)N2)n1 | Hsp90α |  |  |  |  | IC50 | 0.6 nM |
| COc1ccc(Nc2nc(Nc3ccc(OCC[18F])cc3)ncc2Br)cc1 |  |  | S180 tumour-bearing mice, brain | intravenous, 30 min |  | tissue uptake | 1.19 ± 0.18 %ID/g |
| Cc1[nH]c(=O)c(CNC(=O)c2cc(Cl)c3c(c2C)O[C@@](C)([C@H]2CC[C@H](N(C)C)CC2)O3)c(C)c1O | EZH1 | enzyme activity, inhibitor |  |  | relative to: IC50 compound over valemetostat | potency ratio | ~24 fold |
| c1ccc2c(c1)CCCNC2c1c[nH]c2ncccc12 (stereo not drawn) | P-glycoprotein (ABCB1) | inhibitor |  | 20 µM | relative to: untreated cells, higher = stronger inhibition | fluorescence activity ratio | 3.1 |
| CCCCCCC(=O)N[C@H]1CCOC1=O | TraR, Agrobacterium tumefaciens | reporter gene, antagonist, traI-lacZ reporter |  | 10 µM |  | inhibition | > 90% |
| FC(F)(F)c1ccccc1-c1nc(NCc2cccs2)c2ccccc2n1 | all other kinases | inhibitor |  | 10 µM | relative to: control | remaining activity | > 47% |
| O=C(C=C(O)C(F)(F)C(F)(F)F)c1cccs1 | Plasmodium falciparum formate-nitrite transporter | L-lactate transport, inhibitor, radiolabelled uptake | yeast |  |  | IC50 | 110 ± 10 nM |
| c1ccc2c(C3NCCc4c3[nH]c3ccccc43)c[nH]c2c1 (stereo not drawn) | P-glycoprotein (ABCB1) | inhibitor |  | 20 µM | relative to: untreated cells, higher = stronger inhibition | fluorescence activity ratio | 2.26 |
| C[S+]([O-])c1ccc(Nc2nc(OCC3CCCCC3)c3nc[nH]c3n2)cc1 (stereo not drawn) | TYK2 |  |  | benchmark set |  | binding free energy | -10.9 kcal/mol |
| O=c1ccc(OCCCN2CCCCC2)nn1-c1ccc(Cl)c(Cl)c1 | adrenergic α1 receptor |  |  | 1.0 µM |  | inhibition | 15.3 ± 1.2% |
| O=C(C=C(O)C(F)(F)c1ccccc1)c1cccnc1 | Plasmodium falciparum formate-nitrite transporter | L-lactate transport, inhibitor, radiolabelled uptake | yeast |  |  | IC50 | 1140 ± 200 nM |
| CS(=O)(=O)Nc1ccc(-c2cncc(-c3cccc4cc[nH]c34)c2)cc1 | TNNI3K |  |  | 1 µM |  | remaining activity | < 30% |
| O=C(C=C(O)C(F)(F)C(F)(F)F)c1cccc(O)c1 | Plasmodium falciparum formate-nitrite transporter | L-lactate transport, inhibitor, radiolabelled uptake | yeast |  |  | IC50 | 160 ± 10 nM |
| CS(=O)(=O)c1ccc(Nc2nc(OCC3CCCCC3)c3nc[nH]c3n2)cc1 | MCL1 | experimental benchmark set |  |  |  | binding free energy | -7.92 kcal/mol |
| C=Cc1c(C)c2cc3nc(c(CC(=O)[O-])c4[n-]c(cc5nc(cc1[n-]2)C(C)=C5CC)c(C)c4C(=O)[O-])C(CCC(=O)[O-])C3C.[Cu+2].[Na+].[Na+].[Na+] (stereo not drawn) | Nrf2 | activator |  |  |  | concentration for activation | 5 to 15 µM |
| CCCCCCCCCC(=O)CC(=O)NC1CCCCC1=O (stereo not drawn) | RhlR Pseudomonas aeruginosa | rhlI-gfp(LVA) reporter, inhibitor | Pseudomonas aeruginosa, PAO-JP2 | 50 µM |  | inhibition | 70% |
| O=C(C=C(O)C(F)(F)C(F)(F)F)c1ccc(NCC(F)(F)F)nc1 | Plasmodium falciparum formate-nitrite transporter | L-lactate transport, inhibitor, radiolabelled uptake | yeast |  |  | IC50 | 210 ± 20 nM |
| Cn1nnnc1Sc1ncnc2scc(-c3cccc(S(C)(=O)=O)c3)c12 | PI5P4Kγ |  |  | 10 µM |  | remaining activity | 4.9% |
| CN(CCN)Cc1ccccc1Sc1ccccc1Cl | SMYD2 | enzyme activity |  | 100 µM |  | inhibition | ~40% |
| O=C(C=C(O)C(F)(F)C(F)(F)C(F)(F)F)c1cccnc1 | Plasmodium falciparum formate-nitrite transporter | L-lactate transport, inhibitor, radiolabelled uptake | yeast |  |  | IC50 | 340 ± 50 nM |

For quick reference, copied from above:
| Structure (SMILES) | target or system | test | system | conditions | how to read | endpoint | result |
| --- | --- | --- | --- | --- | --- | --- | --- |
| CS(=O)(=O)Nc1ccc(-c2cncc(-c3cccc4cc[nH]c34)c2)cc1 | TNNI3K |  |  | 1 µM |  | remaining activity | < 30% |
